Measured values from different studies.
Parts stem from different laboratories: compare values within a part only.

Set 1 — technique: RNA Bind-n-Seq; form: RNA; sample: in vitro; tested at: 365 nM; relative to: no-protein control; direction: higher = stronger binding; measurement: RBNS enrichment (R)
Target: RNA binding protein fox-1 homolog 2, RRM domain, GST-SBP tag (RBFOX2, Homo sapiens, UniProt O43251-10, residues 100-194)
Setting: natural RNA segment, single round, ends assumed
All sequences stand within: GGGAGUUCUACAGUCCGACGAUC … UGGAAUUCUCGGGUGCCAA
Residues (chain): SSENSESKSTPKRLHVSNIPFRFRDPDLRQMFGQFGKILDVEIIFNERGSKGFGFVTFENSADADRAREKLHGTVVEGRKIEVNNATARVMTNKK
CCAGCCCACCCUACACCGUGCAAUACCCAGACCCAGCCUGGUCUUUCCCCAGGCCUUUGCCCGCUUCUCCCUGGUCACCCUUGUCCAGUGUGAGUUUUGUCACAUUCUGG: 1.06
ACAUAAAAUGUCUGGUUGACUGUAUACCUUGUUUUUGAAGAAAUUUAUUCGUGAAAGGAAGAGCAGUUGUUAUUUAUUGUGAGGUCUCUUGCUUGUAAAGUAAAAGCUUU: 0.781
UUGGAGUUCAUGUGAAGGAAUGUCUUUUUAAAUAAUGCUACUCUGAUGCCAUAAUUUUCUAUGGCUCACUAGCUACACUUCCUAGACAUGAGGACUGAUUCCUGUUCACA: 0.32
ACUACUAUUCAAGUAGAGAUUUGCCCCAACACAUUAACUUUUUCCUUGGAGAUUUAUAUGGUCCUGCAUUUUGUCCUGUGCUCACAAUGUGAAGUGUCUUCUGUAUUCAA: 2.48
CUUUUUCUGCAAUUUGUUUGCAUUUUUUAGAAGUGCAAACAGUAAGUAAAUAAAAGCCUUCGGUAAUAAUCAUGACAAUACAAGAGGCUGAGCUAGGCUACAGGGGAAAA: 0.609
AGACUCACUCACUCUUAGUUUUUAAGAACUGGAAAUUUCCCAUCCUCAGAUCCCUUAAAGGAUGAAGAGUUGGCUGUACACUUAGCGGACUUGCCUCUUGUAUGCAAGGA: 0.404
UGGGAAGGACCCAGUGGGAGAUAAUUGAAAUAUGGGGGCAGUUUCCGCCAUACUGUUCUGGUGAUAGUGAAUAGAUCUCAUGAGAGCUGAUGAUUUUAUAAGAGGUUUCC: 0.909
AAUAUAAACAAAGAUUCAUGAUUUAUAAAUGCCAUUUAUUUAUUGAUUCCUUUUUUCAAAAUCCAAAAAGAAAUGAUGUUGGAGAAGGGAAGUUGAACGAGCAUAGUCCA: 0.444

Set 2 — technique: RNA Bind-n-Seq; form: RNA; sample: in vitro; tested at: not given; setting: RNA with constant flanks, ends assumed; relative to: input RNA pool; direction: higher = stronger binding; measurement: bound/input enrichment
Target: RING finger protein unkempt homolog, zinc fingers 1-6, GST-SBP tag (UNK, Homo sapiens, UniProt Q9C0B0, residues 30-357)
Sequence of UniProt Q9C0B0 (30-357, looked up): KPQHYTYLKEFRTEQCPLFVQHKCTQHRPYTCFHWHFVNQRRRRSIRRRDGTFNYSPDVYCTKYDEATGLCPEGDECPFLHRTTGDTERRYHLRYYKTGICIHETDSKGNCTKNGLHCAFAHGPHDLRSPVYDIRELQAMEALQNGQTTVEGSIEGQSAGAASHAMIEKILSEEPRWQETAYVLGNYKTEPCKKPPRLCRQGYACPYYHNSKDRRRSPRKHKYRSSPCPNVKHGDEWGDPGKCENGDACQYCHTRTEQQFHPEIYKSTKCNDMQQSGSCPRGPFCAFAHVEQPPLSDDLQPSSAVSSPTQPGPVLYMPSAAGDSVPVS
All sequences stand within: GGGAGUUCUACAGUCCGACGAUC … CAACAGAGGAUUGAGCAUCA
CCUACAACCAUCAUGAAUGCAGAUAUUCUAGCAUAUUGUCAGAAGGAAGGAUGGUGCAAAUCCGCUUUUUAUCUUCUAGCAUUUUUUUACUACCUAUAUGGCAUGAUCUAUGUUUUGGUG: 0.672 ratio
GAUGCAGUUAAGGAAGAAAAUCUGAAGCUAAAGUCGGAAAAUCAAGUUCUCGGACAAUAUACCGAAAACCUCAUGUCUGCUUCUAGUGUUUUUCAAACAACUGAUACAAAAAGCAAAAGG: 0.128 ratio
CUCAUGCCUUCCAGUCUGCAGACCCCUCAGACCCAGGAGCAGAAUGGGAUUCUAGACUGGCUCCGGAAACUGCGUUUGCACAAGUAUUACCCCGUCUUUAAGCAGCUCUCCAUGGAGAAG: 0.123 ratio
CGUGCUUUUGAAGACGAUGAUAUCACGCAUGUUGAAGGAAGUGUAGAUCCCAUCCGAGACACCGAGAUAAUUCACGAGGAGCUCCAGCUGAAGGACGAGGAGAUGAUUGGGCCCAUUCUA: 0.237 ratio
GAAGAUUUCCUGAAAAAAUGGGAGACCCCUUCUCAGAAUACAGCCCAGUUGGAUCAGUUUGACCGAAUCAAGACCCUUGGCACCGGCUCCUUUGGGCGAGUGAUGCUGGUGAAGCACAAG: 0.231 ratio
UAGCCAAGGUUUUUACAAAGGGGAAAGGAAAAGAAAACAAAAACGCAAGCUCCAUGUGUACCGCUGAACUUUUAUAUGUUUCUUGCCAGCCCCUCCGCUCCCUUCCAUCUCUAGCCUCUG: 0.231 ratio
CUGGUGUGCCAGGAGAGUACUAAAUUUAAGAAUGUUUGGACAACUCAUUCCAAGUCACCUACCGCCUAUGAGAGAGGAAGAAUAUAUUUUGACAAUUACCGGUGCUGUGUCAGCAGUGUU: 0.485 ratio
UAUGAGAAGGAUGCACUGAGCAUAAGGAAGGUCGGAGAGGAGGAGUGUGUGGCUCCCGGCAGUUUCUUUUUCUGGAAGUGUUUGCAUGGAGAAAGCUCCACUGAAGAGAUGUGCCACAGC: 0.126 ratio

Set 3 — technique: universal PBM; form: double-stranded DNA, one strand shown; sample: in vitro; tested at: 600 nM; direction: higher = stronger binding; measurement: E-score
Target: Sal-like protein 4, full length isoform A (SALL4, Homo sapiens, UniProt Q9UJQ4, residues 1-1053)
Sequence of UniProt Q9UJQ4 (whole entry, looked up): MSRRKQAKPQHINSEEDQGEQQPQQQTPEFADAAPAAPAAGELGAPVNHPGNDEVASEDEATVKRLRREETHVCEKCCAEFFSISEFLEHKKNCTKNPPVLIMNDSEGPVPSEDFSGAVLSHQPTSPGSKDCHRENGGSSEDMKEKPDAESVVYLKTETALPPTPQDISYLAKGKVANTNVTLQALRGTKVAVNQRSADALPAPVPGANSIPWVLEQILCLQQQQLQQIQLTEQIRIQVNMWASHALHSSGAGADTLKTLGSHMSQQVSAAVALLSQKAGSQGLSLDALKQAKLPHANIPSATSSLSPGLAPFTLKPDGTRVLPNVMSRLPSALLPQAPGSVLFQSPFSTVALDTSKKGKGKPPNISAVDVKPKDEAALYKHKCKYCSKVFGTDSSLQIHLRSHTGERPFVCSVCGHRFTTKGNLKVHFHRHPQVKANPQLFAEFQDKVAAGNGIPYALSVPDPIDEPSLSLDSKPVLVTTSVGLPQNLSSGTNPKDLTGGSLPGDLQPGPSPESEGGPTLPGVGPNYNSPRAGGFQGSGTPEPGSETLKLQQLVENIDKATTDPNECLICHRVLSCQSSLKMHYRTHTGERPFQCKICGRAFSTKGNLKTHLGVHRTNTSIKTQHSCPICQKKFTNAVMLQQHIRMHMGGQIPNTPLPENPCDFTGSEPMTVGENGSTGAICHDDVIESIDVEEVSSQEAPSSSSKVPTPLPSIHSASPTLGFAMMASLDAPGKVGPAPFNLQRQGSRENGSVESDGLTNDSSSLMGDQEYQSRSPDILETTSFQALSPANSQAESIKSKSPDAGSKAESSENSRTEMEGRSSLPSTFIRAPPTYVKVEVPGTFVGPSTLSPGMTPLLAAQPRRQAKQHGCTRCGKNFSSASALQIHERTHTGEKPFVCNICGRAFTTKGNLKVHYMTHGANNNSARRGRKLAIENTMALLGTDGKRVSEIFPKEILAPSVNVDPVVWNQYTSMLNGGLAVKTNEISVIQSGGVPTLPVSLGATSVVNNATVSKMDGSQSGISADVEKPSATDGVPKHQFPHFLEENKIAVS
Setting: 8-mer, flanks averaged, mean of replicates
GCTTCGAA: -0.181
GCCTAGGC: -0.246
GTGGAAAA: 0.179
GTCACCAA: 0.0206
CGCGAAGA: -0.139
CCCTAGTA: -0.0122
AAGGCGCG: -0.237
CGGTAATA: 0.258
CACCATGA: -0.122
ATCTTGTA: 0.163
CTGAAACA: 0.159
CCCTAAAG: -0.174
AGAAATCA: 0.252
CTTCCGGC: -0.179
GACAATAC: 0.228
TGACGTAA: 0.165
GACCCACC: -0.262
TAGACCTA: 0.103
CTGTGTTC: -0.0433
AGCGTGTC: -0.155
ACCGACTA: -0.173
GGAAAAGA: 0.0911
CAACAATC: 0.133
CATTACGC: -0.0449
AATTATAA: 0.428

Set 4 — technique: protein binding microarray; form: double-stranded DNA, one strand shown; sample: in vitro; tested at: not given; relative to: not given; direction: higher = stronger binding; measurement: E-score
Target: Histone acetyltransferase KAT6A, winged helix 2, GST fusion (KAT6A, Homo sapiens, UniProt Q92794, residues 85-181)
Setting: 8-mer, flanks averaged, mean of 2 arrays, mostly near background
Residues (chain): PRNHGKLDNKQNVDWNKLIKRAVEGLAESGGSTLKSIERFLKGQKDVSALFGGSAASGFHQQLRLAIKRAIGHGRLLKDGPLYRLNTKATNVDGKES
TCCGTAGA: -0.0944
CCGGTCTA: -0.105
AGACGTCA: -0.181
GGAATTAC: -0.108
AAAGCGGA: 0.0397
CGTGATCA: -0.128
AGTCCTAA: -0.156
ATGATGAA: 0.034
GGACTACA: -0.1
ACAGCTAG: -0.267
ATCACAGG: -0.206
AATCTTAT: 0.0889
AAGTATTA: -0.0185
CAGACGTA: 0.00164
AAAGCCCC: -0.0264
AGCCGAGG: 0.219
ACTCAACA: -0.0195
CAGTCGTA: -0.0317
CGTCCCAA: 0.148
GGGACGGA: -0.0719
GGGTTGAA: -0.061

A few entries again (set 2):
UAGCCAAGGUUUUUACAAAGGGGAAAGGAAAAGAAAACAAAAACGCAAGCUCCAUGUGUACCGCUGAACUUUUAUAUGUUUCUUGCCAGCCCCUCCGCUCCCUUCCAUCUCUAGCCUCUG: 0.231 ratio
UAUGAGAAGGAUGCACUGAGCAUAAGGAAGGUCGGAGAGGAGGAGUGUGUGGCUCCCGGCAGUUUCUUUUUCUGGAAGUGUUUGCAUGGAGAAAGCUCCACUGAAGAGAUGUGCCACAGC: 0.126 ratio
CUCAUGCCUUCCAGUCUGCAGACCCCUCAGACCCAGGAGCAGAAUGGGAUUCUAGACUGGCUCCGGAAACUGCGUUUGCACAAGUAUUACCCCGUCUUUAAGCAGCUCUCCAUGGAGAAG: 0.123 ratio
CUGGUGUGCCAGGAGAGUACUAAAUUUAAGAAUGUUUGGACAACUCAUUCCAAGUCACCUACCGCCUAUGAGAGAGGAAGAAUAUAUUUUGACAAUUACCGGUGCUGUGUCAGCAGUGUU: 0.485 ratio
